Assay results pooled from the literature.
Every numbered part comes from another study and shows a few of its results, in no order. Positions count from the first letter of the parent shown.

Study 1
Target: CCNE1, cyclin fold, Cln2 fusion (human)
Technique: yeast growth competition, sequencing
Sample: yeast
Setting: strong parent motif
Relative to: not given
Direction: higher = stronger binding
Starting sequence: NPAT docking peptide (human); PCHRRVLCFDSTT
Change | normalised enrichment score
PCHRRALCFDSTT [V6A] | 0.877
PCHRAVLCFDSTT [R5A] | 0.259
PCHRRVLCFDSTA [T13A] | 1.26
PCHRRVLCLDSTT [F9L] | 0.031

Study 2
Target: ABI1, truncated, D143A, DHFR fusion (Arabidopsis thaliana)
Technique: DHFR PCA, deep sequencing
Sample: yeast
Setting: methotrexate growth selection, single substitutions
Together with: (+)-ABA 17 µM
Relative to: wild-type fitted maximum
Direction: higher = stronger binding
Starting sequence: PYL1, truncated, DHFR fusion (Arabidopsis thaliana); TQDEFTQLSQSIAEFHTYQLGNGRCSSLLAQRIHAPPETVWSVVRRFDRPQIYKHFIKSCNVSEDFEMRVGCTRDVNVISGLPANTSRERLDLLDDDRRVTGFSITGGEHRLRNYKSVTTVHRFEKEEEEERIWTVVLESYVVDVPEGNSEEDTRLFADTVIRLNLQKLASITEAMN; partner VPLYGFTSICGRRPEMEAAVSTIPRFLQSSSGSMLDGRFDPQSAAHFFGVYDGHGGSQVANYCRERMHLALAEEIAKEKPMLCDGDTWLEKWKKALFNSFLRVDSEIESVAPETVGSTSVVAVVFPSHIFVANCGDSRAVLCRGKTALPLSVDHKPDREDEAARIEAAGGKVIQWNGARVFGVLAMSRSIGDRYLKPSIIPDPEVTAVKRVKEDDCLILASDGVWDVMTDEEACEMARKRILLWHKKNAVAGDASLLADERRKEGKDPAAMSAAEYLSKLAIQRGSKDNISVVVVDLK
Change | relative binding score [%]
E128S | 89.6
F66M | 73.2
S26P | 0.673
D75F | 80.3
L20Q | 88.1
E130D | 92.2

Study 3
Target: Ras GTPase-activating protein-binding protein 1, RRM domain (G3BP1, Homo sapiens, UniProt Q13283)
UniProt Q13283, sequence (whole entry, looked up): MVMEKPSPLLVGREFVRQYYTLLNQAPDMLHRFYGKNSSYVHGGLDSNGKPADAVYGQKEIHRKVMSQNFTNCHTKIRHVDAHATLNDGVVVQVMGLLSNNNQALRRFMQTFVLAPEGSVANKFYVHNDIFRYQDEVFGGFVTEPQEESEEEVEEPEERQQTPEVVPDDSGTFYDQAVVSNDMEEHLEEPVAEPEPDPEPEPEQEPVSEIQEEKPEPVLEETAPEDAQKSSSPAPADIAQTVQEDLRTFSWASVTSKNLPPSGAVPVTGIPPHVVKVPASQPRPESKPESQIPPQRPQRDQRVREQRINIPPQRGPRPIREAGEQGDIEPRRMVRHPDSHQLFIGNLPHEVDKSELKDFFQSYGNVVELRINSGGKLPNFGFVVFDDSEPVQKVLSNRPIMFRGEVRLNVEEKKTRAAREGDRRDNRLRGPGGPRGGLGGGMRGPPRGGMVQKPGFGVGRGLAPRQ
Technique: RNA Bind-n-Seq
Form: RNA
Sample: in vitro
Concentration: 1 µM
Setting: whole 134-nt RNA, ends assumed
Together with: 150 mM KCl
Relative to: input library
Direction: higher = stronger binding
Constant ends, left off below: GGGAGUUCUACAGUCCGACGAUC … UGGAAUUCUCGGGUGUCAAGG
Oligonucleotide | log2 enrichment
UCAAGUCCUGUGCUACACAUCGUAUGUACCGAAUCGGGUGGGAAAGGGUUUGGGAAAGUAUUAUGUUACGCCGUUCGGAUCUGCACUUCC | 0.668
CAAGUCCUGUGCUACACAUCGUAUGUACCGAAUCGGGGCCCGGCCCGGCCCGGGGAAAGUAUUAUGUUACGCCGUUCGGAUCUGCACUUC | -0.993
UACAUUCUUUACCCCUUGUUUUAAUUUGAACCCCACCAUAUGGAUUUUUUUCCUUAAGAAAAUCUCCUUUUAGGAGAUCAUGGUGUCACA | -0.403
UUCAAGGCCAUGAAGGACCUGUUUAUGCGGUGCAUGCUGUUUACCAGAGGAGGACAUCAGAUCCUGCAUUAUGUACACUGAUCGUUUCUG | -0.305
GCAGGAAGUAAAAACAAAUGGAAAUGCUUCGGAUAGUGGCAGGGGUGGGGGUUGCUAAGGACAGGGUGGGAUGGGAGUGGGUAAAGAGUU | 0.795
UGGCUUUCACCCCCAACCAGUGACCAAAGACUUGACCACUCAAAGUCCAGCUCCCCAGAACACUGCUCGACAUGGACACCGGUGUGAUUG | 0.0883

Mixed results
Substance | target | assay | test system | conditions | scale | quantity | result
PhoQ, residues 284 288 289 292 302 303 TLSLKA | PhoP, residues 12 14 15 18 19 HLGGL (Escherichia coli, UniProt P23836) | Sort-seq, measured: YFP reporter | E. coli | PhoQ-PhoP variant library, together with: 10 µM Mg2+ | relative to: high Mg2+ state, higher = stronger signaling | fold induction | 8.86
